{"data": "Measurements of several laboratories", "UCHL1": "Ubiquitin carboxyl-terminal hydrolase isozyme L1 (UCHL1, Homo sapiens, UniProt P09936)", "chain of UniProt P09936 (whole entry, looked up)": "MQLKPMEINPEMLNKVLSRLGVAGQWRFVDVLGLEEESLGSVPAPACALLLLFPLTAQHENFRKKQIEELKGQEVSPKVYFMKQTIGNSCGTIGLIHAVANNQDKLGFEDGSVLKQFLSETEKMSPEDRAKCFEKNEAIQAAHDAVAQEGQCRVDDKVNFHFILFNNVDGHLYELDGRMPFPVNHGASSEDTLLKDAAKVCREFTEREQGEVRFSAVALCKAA"}
{"SMILES": "CCOc1c([C@H](C)n2nc(C)c3c(N)ncnc32)cc(Cl)c(F)c1[C@@H]1CNC(=O)C1", "test system": "human patients, plasma", "setting": "oral, 20 mg, day 1, geometric mean", "quantity": "AUC(0-last)", "value": "6.41 µM·h"}
{"SMILES": "Cn1c(=O)oc2ccc(-c3ccc(C[C@@H](C#N)NC(=O)[C@@H]4CNCCCO4)cc3)cc21", "test system": "human, normal renal function, plasma", "setting": "oral, 25 mg single dose, mean", "quantity": "AUC(0-last)", "value": "3480 ng·h/mL"}
{"SMILES": "CO[C@H]1C[C@@H]2CC[C@@H](C)[C@@](O)(O2)C(=O)C(=O)N2CCCC[C@H]2C(=O)O[C@H]([C@H](C)C[C@@H]2CC[C@@H](OC(=O)NCCOCCOCCOCCOCCOCCOCCOCCOCCC(=O)N3CCc4cc(Cn5nc(-c6ccc7oc(N)nc7c6)c6c(N)ncnc65)ccc4C3)[C@H](OC)C2)C[C@@H](O)[C@H](C)/C=C(\\C)[C@@H](O)[C@@H](OC)C(=O)[C@H](C)C[C@H](C)/C=C/C=C/C=C/1C", "test system": "human patients, plasma", "setting": "intravenous, 10 mg, cycle 1 day 1, 2 h infusion", "quantity": "AUC(0-last)", "value": "486 ng·h/mL"}
{"SMILES": "Cn1nc2c(=O)n(C3CC3)cnc2c1[C@](O)(c1cnc(C(F)(F)F)c(Cl)c1)C(F)(F)F", "test system": "infected humanized SCID mice, blood", "setting": "30 mg/kg daily, 6 days", "quantity": "AUC(0-last)", "value": "1340 µM·h"}
{"SMILES": "N#CC(=Cc1ccc(O)c(O)c1)C(=O)Nc1ccccc1F", "target or system": "UCHL1", "test": "covalent, intact protein LC-MS", "setting": "12.5 µM", "quantity": "labelling", "value": "9.71%"}
{"SMILES": "Cc1cc(Nc2cc3ncccc3c(N[C@@H]3C[C@H]4CC[C@@H](C3)N4CCC#N)n2)n[nH]1", "test system": "human, plasma", "setting": "30 mg single dose, mean", "quantity": "AUC(0-last)", "value": "4.78 ng·h/mL"}
{"SMILES": "CN(C)C(=O)c1cc2cnc(Nc3ccc(N4CCNCC4)cn3)nc2n1C1CCCC1", "test system": "human, severe renal impairment, plasma", "setting": "oral, 400 mg, single dose, adjusted geometric mean", "quantity": "AUC(0-last)", "value": "10800 ng·h/mL"}
{"SMILES": "CC(C)n1nc(-c2ccc3oc(N)nc3c2)c2c(N)ncnc21", "test system": "human, plasma", "setting": "oral, 3 mg once daily, cycle 1 day 1", "quantity": "AUC(0-last)", "value": "189 ng·h/mL"}
{"SMILES": "CC(C)NC(=O)COc1cccc(-c2nc(Nc3ccc4[nH]ncc4c3)c3ccccc3n2)c1", "test system": "human male, plasma", "setting": "oral, 200 mg, day 5, alone, adjusted geometric mean", "quantity": "AUC(0-last)", "value": "8430 ng·h/mL"}
{"SMILES": "CC(F)(F)c1cc(F)ccc1-c1sc2cc(O)ccc2c1Oc1ccc(/C=C/C(=O)O)cc1", "test system": "human patients, serum", "setting": "oral, 300 mg once daily, cycle 1 day 28, regular meal, mean, added: alpelisib", "quantity": "AUC(0-last)", "value": "17100 ng·h/mL"}
{"SMILES": "Cc1noc(C)c1-c1cc(C(O)(c2ccccn2)c2ccccn2)c2nc(C3CC3)[nH]c2c1", "test system": "human male fasted, plasma", "setting": "oral, 2 mg once daily, cycle 1 day 8", "quantity": "AUC(0-last)", "value": "4210 ng·h/mL"}
{"SMILES": "O=C(CCl)c1ccc(CC(=O)N2CCOCC2)s1", "target or system": "UCHL1", "test": "covalent, intact protein LC-MS", "setting": "12.5 µM", "quantity": "labelling", "value": "21.6%"}
{"note": "Repeated from above:"}
{"SMILES": "CC(C)n1nc(-c2ccc3oc(N)nc3c2)c2c(N)ncnc21", "test system": "human, plasma", "setting": "oral, 3 mg once daily, cycle 1 day 1", "quantity": "AUC(0-last)", "value": "189 ng·h/mL"}
